Experimental data pooled from the literature.
A part holds a random share of what one study measured.

Sample 1
Target: Replicase polyprotein 1ab, 3C-like proteinase (rep, Middle East respiratory syndrome-related coronavirus, UniProt K9N7C7)
Effect on: enzyme activity
Tested at: 10 µM
The inhibition of Nc1ccc2cc3ccc(N)cc3nc2c1 is reported as 37%.
The inhibition of CCOC(=O)Cc1ccc(-c2ccccc2)cc1 is reported as 18%.
With CC(C)c1cc(CNc2nc(Nc3cc(C4CC4)[nH]n3)cc(N3CCN(C)CC3)n2)on1 the inhibition was 9%.
With COc1cccc(C(=O)CCN[C@@H](C)[C@H](O)c2ccccc2)c1 the inhibition was 19%.

Sample 2
Target: Sal-like protein 4, full length isoform A (SALL4, Homo sapiens, UniProt Q9UJQ4, residues 1-1053)
Sequence of UniProt Q9UJQ4 (whole entry, looked up): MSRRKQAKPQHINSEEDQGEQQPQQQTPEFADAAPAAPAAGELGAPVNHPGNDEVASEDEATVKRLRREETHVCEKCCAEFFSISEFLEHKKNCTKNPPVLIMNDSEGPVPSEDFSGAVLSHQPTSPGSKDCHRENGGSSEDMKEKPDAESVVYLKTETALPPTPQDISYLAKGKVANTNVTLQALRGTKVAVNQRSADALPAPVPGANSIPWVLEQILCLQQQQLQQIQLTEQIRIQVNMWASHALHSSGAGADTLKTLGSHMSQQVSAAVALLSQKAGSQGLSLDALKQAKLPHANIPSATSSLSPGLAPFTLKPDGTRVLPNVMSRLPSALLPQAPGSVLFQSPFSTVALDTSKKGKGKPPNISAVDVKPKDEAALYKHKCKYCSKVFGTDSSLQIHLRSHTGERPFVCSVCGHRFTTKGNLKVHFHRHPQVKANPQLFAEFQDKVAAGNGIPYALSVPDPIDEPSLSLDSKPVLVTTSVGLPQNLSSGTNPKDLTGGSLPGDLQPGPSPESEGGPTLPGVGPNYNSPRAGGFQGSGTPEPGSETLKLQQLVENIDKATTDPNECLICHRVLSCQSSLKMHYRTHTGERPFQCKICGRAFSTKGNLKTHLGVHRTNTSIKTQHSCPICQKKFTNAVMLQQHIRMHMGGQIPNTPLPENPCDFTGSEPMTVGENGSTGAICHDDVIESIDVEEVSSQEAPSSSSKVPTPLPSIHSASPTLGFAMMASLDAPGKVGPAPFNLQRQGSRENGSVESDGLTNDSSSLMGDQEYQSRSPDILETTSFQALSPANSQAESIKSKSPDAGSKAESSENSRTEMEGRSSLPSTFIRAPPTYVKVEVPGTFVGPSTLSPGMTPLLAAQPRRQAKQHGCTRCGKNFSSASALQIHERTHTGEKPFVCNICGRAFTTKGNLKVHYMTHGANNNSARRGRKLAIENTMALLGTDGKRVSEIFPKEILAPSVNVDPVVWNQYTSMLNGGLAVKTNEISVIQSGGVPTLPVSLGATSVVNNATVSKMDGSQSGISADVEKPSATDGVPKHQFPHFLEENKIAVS
Technique: universal PBM
Molecule type: double-stranded DNA, one strand shown
Medium: in vitro
Tested at: 600 nM
Setting: 8-mer, flanks averaged, mean of replicates
Reading: higher = stronger binding
The E-score of `ATCCATGG` is reported as -0.216.
For `CGTCACTA`, the E-score was -0.0412.
The E-score of `CATACGCC` is reported as 0.103.
For `GCTGCATA`, the E-score was 0.0573.
The E-score of `ACCGACCC` is reported as -0.251.
For `TCCCCCAA`, the E-score was -0.212.
The E-score of `AACAGGCG` is reported as -0.166.
`AGCCTTAC` has an E-score of -0.158.

Sample 3
Target: Replicase polyprotein 1ab, nsp13 helicase (rep, Severe acute respiratory syndrome coronavirus 2, UniProt P0DTD1)
Action: inhibitor
Tested at: 20 µM
With CC1(C)OC[C@H](NC(=O)Nc2ccc(Br)cc2Br)[C@H](c2ccccc2)O1 the inhibition was 9.46%.
With Nc1ccccc1NC(=O)c1ccc(CNc2nccc(-c3cccnc3)n2)cc1 the inhibition was 15.2%.
NC[C@@H]1O[C@H](O[C@H]2[C@@H](O)[C@H](O[C@@H]3[C@@H](O)[C@H](N)C[C@H](N)[C@H]3O[C@H]3O[C@H](CO)[C@@H](O)[C@H](O)[C@H]3N)O[C@@H]2CO)[C@H](N)[C@@H](O)[C@@H]1O has an inhibition of 8.46%.
With CN1CCN(CC/C=C2/c3ccccc3Sc3ccc(S(=O)(=O)N(C)C)cc32)CC1 the inhibition was -4.35%.
With NS(=O)(=O)OC[C@@H]1C[C@@H](n2ccc3c(N[C@H]4CCc5ccccc54)ncnc32)C[C@@H]1O the inhibition was 6.22%.
The inhibition of COc1ccc2[nH]c(C(=O)c3ccccc3)cc2c1 is reported as 7.98%.
The inhibition of CN1[C@@H]2CCC[C@H]1C[C@@H](NC(=O)c1nn(C)c3ccccc13)C2 is reported as -15.2%.
For CCCC(=O)Nc1cccc(NC(=O)c2ccccc2Br)c1, the inhibition was 3.59%.
The inhibition of Cc1c(O)cccc1C(=O)N[C@@H](CSc1ccccc1)[C@H](O)CN1C[C@H]2CCCC[C@H]2C[C@H]1C(=O)NC(C)(C)C is reported as -5.94%.
For COc1cc(CN2CCN(c3ccc(F)cc3)CC2)cc(OC)c1OC, the inhibition was 3.59%.
For CN1CCN(C2=Nc3ccccc3Sc3ccc(Cl)cc32)CC1, the inhibition was 1.43%.
C[C@](O)(COc1ccc(C#N)cc1)C(=O)Nc1ccc(C#N)c(C(F)(F)F)c1 gave an inhibition of 9.78%.
COC1=C(OC)C(=O)C(C/C=C(\C)CC/C=C(\C)CC/C=C(\C)CC/C=C(\C)CC/C=C(\C)CC/C=C(\C)CC/C=C(\C)CC/C=C(\C)CC/C=C(\C)CCC=C(C)C)=C(C)C1=O gave an inhibition of -1.07%.
With CC1(C)[C@@H](OC(=O)CCC(=O)O)CC[C@]2(C)[C@H]3C(=O)C=C4[C@@H]5C[C@@](C)(C(=O)O)CC[C@]5(C)CC[C@@]4(C)[C@]3(C)CC[C@@H]12 the inhibition was 10.5%.
With N#Cc1cc(NC(=O)C(=O)O)c(Cl)c(NC(=O)C(=O)O)c1 the inhibition was 7.38%.
CC(=O)[C@@]1(O)CC[C@H]2[C@@H]3C=C(Cl)C4=CC(=O)[C@@H]5C[C@@H]5[C@]4(C)[C@H]3CC[C@@]21C gave an inhibition of 2.72%.
With C[C@H](Cn1cnc2c(N)ncnc21)OCP(=O)(O)O the inhibition was 2.01%.
The inhibition of Cc1cc(C)c(CNC(=O)c2cc(-c3ccc(N4CCN(C)CC4)nc3)cc3c2c(C)cn3C(C)C)c(=O)[nH]1 is reported as 11.9%.
For Cc1cn2nc([C@@H]3CCCCN3C(=O)c3cc(Cl)ccc3NS(C)(=O)=O)cc2nc1N1CC[C@H](N)C1, the inhibition was 7.81%.
CCN(CC)CCn1c(=O)c(Cc2ccc(OC)cc2)nc2ccccc21 gave an inhibition of 0.67%.
The inhibition of O=C1CC2(CCCC2)CC(=O)N1CCNCC1COc2ccccc2O1 (centres unmarked) is reported as 7.48%.
With O=C(c1ccc(Cl)o1)N1C[C@H]2CNC[C@H]2C1 the inhibition was 4.04%.
Cc1ccc(N2CCN(CCC3NC(=O)c4ccccc43)CC2)cc1C (centres unmarked) has an inhibition of 2.92%.
The inhibition of C[C@H](Cc1ccc(O)c(O)c1)[C@@H](C)Cc1ccc(O)c(O)c1 is reported as 0.64%.
Cc1nnc(C(C)C)n1[C@@H]1C[C@H]2CC[C@@H](C1)N2CC[C@H](NC(=O)C1CCC(F)(F)CC1)c1ccccc1 gave an inhibition of 4.66%.

Sample 4
Target: Interferon regulatory factor 7, full length, phosphomimetic (IRF7, Homo sapiens, UniProt Q92985, residues 1-503, S101K/S471D/S472D/S475D/S476D/S477D/S483D/S484D/S487D)
Sequence of UniProt Q92985 (whole entry, unmodified, looked up): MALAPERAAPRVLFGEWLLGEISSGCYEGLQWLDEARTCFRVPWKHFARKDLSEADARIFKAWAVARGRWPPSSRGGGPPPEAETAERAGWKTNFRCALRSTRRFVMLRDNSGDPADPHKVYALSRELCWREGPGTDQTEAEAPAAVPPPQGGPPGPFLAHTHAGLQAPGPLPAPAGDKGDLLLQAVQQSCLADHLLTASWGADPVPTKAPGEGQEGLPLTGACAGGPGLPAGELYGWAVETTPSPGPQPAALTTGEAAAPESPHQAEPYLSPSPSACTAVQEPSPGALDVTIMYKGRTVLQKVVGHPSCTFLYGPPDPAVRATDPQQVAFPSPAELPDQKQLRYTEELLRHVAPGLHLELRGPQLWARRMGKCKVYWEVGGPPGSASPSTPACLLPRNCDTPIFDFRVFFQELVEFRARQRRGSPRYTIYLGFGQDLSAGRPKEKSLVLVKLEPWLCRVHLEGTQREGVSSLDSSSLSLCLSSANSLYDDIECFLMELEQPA
Technique: protein-binding microarray
Molecule type: double-stranded DNA, one strand shown
Medium: in vitro
Tested at: 250 nM
Setting: 60-bp whole probe
With: salmon DNA 0.4 mg/ml
Baseline: random background probes
Reading: higher = stronger binding
Constant ends, left off below: GCCTAGCAC … GTCTTGATTCGCTTGACGCTGCTG
With `TTAGATATCGGGACTGGAATAGTGCTA` the log fluorescence was 0.0821 z-score.
With `TTAGGTTGCGGTATCGGTTAGTGCTAG` the log fluorescence was 1.28 z-score.
For `TAGAGTCTCAACCCCCAATAAGTGCTA`, the log fluorescence was -0.198 z-score.
The log fluorescence of `GACGAACTGGGTTTCGAGACGTGCTAG` is reported as 2.9 z-score.
With `GACGGTTTCCTTTCCCGGACGTGCTAG` the log fluorescence was 4.99 z-score.
For `GACGAACTAGGGACTGGAGACGTGCTA`, the log fluorescence was -0.372 z-score.
The log fluorescence of `TTAGAACTGAGTCTCTATTAGTGCTAG` is reported as 0.0747 z-score.
`TTAGATATCGGGACTGGATTGGTGCTA` has a log fluorescence of -0.102 z-score.

Sample 5
Target: Histone acetyltransferase KAT6A, winged helix 1, GST fusion (KAT6A, Homo sapiens, UniProt Q92794, residues 1-85)
Technique: protein binding microarray
Molecule type: double-stranded DNA, one strand shown
Medium: in vitro
Tested at: not given
Setting: 8-mer, flanks averaged, mean of 2 arrays, mostly near background
Baseline: not given
Reading: higher = stronger binding
Residues (chain): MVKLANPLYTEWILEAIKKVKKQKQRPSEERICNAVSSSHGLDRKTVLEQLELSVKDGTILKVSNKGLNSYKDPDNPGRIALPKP
For `CCCGACCA`, the E-score was -0.0245.
`AGAAGCTG` has an E-score of -0.134.
The E-score of `ATCTAACC` is reported as 0.0549.
`CACATAAG` gave an E-score of 0.00426.
With `GGCTCAGA` the E-score was 0.0604.
The E-score of `TATCATAA` is reported as -0.119.
`AAACGTAG` gave an E-score of -0.167.
The E-score of `GGTGGCTA` is reported as 0.0342.

Excerpt of the above (sample 2):
For `CGTCACTA`, the E-score was -0.0412.
The E-score of `CATACGCC` is reported as 0.103.
For `GCTGCATA`, the E-score was 0.0573.
